Results from different studies.
Each line is one published result; not all experiments were run side by side. Values joined by “and” are separate records of one study, mostly repeats; a detail may differ. ± gives the spread as reported.
Sequence of UniProt P06873 (whole entry, looked up): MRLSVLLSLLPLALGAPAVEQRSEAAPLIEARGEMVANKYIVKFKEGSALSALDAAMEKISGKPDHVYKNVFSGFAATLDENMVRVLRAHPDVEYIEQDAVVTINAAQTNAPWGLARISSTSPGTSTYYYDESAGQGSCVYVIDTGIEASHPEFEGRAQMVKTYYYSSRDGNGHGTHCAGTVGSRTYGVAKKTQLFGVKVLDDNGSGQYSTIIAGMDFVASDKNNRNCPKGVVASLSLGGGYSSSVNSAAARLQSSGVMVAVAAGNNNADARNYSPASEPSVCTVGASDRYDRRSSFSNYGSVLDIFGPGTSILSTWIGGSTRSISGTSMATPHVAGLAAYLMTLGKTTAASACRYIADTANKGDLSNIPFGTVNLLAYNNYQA
Sequence of UniProt P10635 (whole entry, looked up): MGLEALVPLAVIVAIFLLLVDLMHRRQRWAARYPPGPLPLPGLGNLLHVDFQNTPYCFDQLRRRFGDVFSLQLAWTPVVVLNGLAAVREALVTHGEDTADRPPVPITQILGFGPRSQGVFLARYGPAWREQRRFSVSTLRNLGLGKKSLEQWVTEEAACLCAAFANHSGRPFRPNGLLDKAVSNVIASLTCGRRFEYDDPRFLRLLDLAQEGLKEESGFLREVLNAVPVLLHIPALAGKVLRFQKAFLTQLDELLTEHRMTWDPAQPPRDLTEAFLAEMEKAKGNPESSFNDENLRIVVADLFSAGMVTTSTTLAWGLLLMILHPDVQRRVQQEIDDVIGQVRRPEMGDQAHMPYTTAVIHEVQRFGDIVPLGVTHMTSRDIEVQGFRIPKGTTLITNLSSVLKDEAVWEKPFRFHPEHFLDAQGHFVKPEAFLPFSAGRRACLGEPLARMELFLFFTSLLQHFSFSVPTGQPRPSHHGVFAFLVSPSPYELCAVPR

Compound | tested on | assay | system | setting | how to read | measurement | result
COc1cnc2cccc(N3CCc4c(cc(Cn5ccnc5)cc4-c4cn(C)nc4C(F)(F)F)C3=O)c2c1 |  |  | male CD-1 mouse, plasma | intraperitoneal, 100 mg/kg |  | AUC(0-t) | 178000 ng·h/mL
O=C1C2CC3CC1CC(C(=O)N1CCN(c4ccc([N+](=O)[O-])c5ncccc45)CC1)(C3)C2 |  |  | male ICR mouse, plasma | oral, 5 mg/kg |  | AUC(0-t) | 26.8 ng·h/mL
Cc1cc(NC(=O)[C@H](O)c2cc(F)cc(F)c2)ccc1-c1cnc(N)c(C(=O)NC(C)C)c1 |  |  | female nude mouse, plasma | oral, 3 mg/kg, single dose |  | AUC(0-t) | 1200 ng·h/mL
C=C(NC(=O)c1csc(-c2nc3c(cc2O)-c2nc(cs2)C(=O)NC(C(C)O)C(=O)NC(=C(C)OC)c2nc(cs2)C(=O)NC2c4nc(cs4)C(=O)NC(COC(=O)c4c5c6c(cccc6n4O)COC(=O)C(OC4CC(C)(O)C(N(C)C)C(C)O4)C2OC5)c2nc-3cs2)n1)C(N)=O (stereo not drawn) |  |  | ICR mice, Streptococcus pneumoniae ATCC 49169 infected, immunocompromised, blood | intravenous, 8 mg/kg/day once daily |  | AUC(0-t) | 754 ng·h/mL
CC(C)(O)c1ncc([S@](N)(=O)=NC(=O)Nc2c3c(cc4c2CCC4)CCC3)s1 |  | item: general, administration-site conditions | healthy human | oral, 30 mg, 14 days, CS formulation, once daily |  | subjects with TEAEs | 67%
CNC(=O)C1CCCN(C(=O)C2CC3CCC2N3C(=O)[C@@H]2C[C@@H](O)CN2C(=O)NCc2cccc(Cl)c2F)C1 (mixture of isomers) | Cytochrome P450 2D6 (CYP2D6, Homo sapiens, UniProt P10635) | enzyme activity, inhibitor, time-dependent inhibition |  | 0.617 µM, preincubated with NADPH |  | dextrorphan formation | 119 ng/mL
Cc1ccc(OCC(=O)N(Cc2cccs2)c2ccn[nH]2)cc1 |  |  | male CD-1 mouse, plasma | oral, 30 mg/kg |  | AUC(0-t) | 0.391 µM·h
O=C(CCC(=O)Nc1ccc(Cl)cc1Cl)N/N=C/c1ccc([N+](=O)[O-])o1 | Trypanosoma cruzi | reporter mRNA translation, inhibitor, item: Renilla luciferase mRNA | cell-free extract | concentration not given, test 2 | relative to: positive over negative control | translation activity | 95.9%
OC1(C(F)(F)F)CCN(c2nc(Nc3ccnc(C(F)(F)F)c3)nc(-c3cccc(C(F)(F)F)n3)n2)C1 (stereo not drawn) |  |  | monkey, blood | oral, 3 mg/kg |  | AUC(0-t) | 29100 ± 2820 ng·h/mL
O=C1CCC(N2C(=O)c3ccc(N4CCC(C(=O)N5CCC(CCN6CCC(CNC(=O)c7cccc(-c8noc(C(F)(F)F)n8)c7)(c7nc(-c8ccccc8)cs7)CC6)CC5)CC4)cc3C2=O)C(=O)N1 (stereo not drawn) |  |  | ICR mouse, plasma | intraperitoneal, 30 mg/kg |  | AUC(0-t) | 11500 ± 2960 ng·h/mL
O=C(c1ccccc1)N1C(c2ccc(OCC3CCN(CCCF)C3)cc2)c2ccc(O)cc2CC12CC2 (stereo not drawn) |  |  | C57BL/6J mouse, plasma | oral, 25 mg/kg, group mean |  | AUC(0-t) | 2890 ng·h/mL
Cc1nn(-c2nc3c(F)cc(F)cc3s2)c(O)c1C(c1ccc(C(F)(F)F)cc1)c1c(C)nn(-c2nc3c(F)cc(F)cc3s2)c1O |  |  | ICR mouse, plasma | intraperitoneal, 10 mg/kg |  | AUC(0-t) | 26000 ng·h/mL and 26400 ng·h/mL and 28700 ng·h/mL
COC(=O)c1c(NC(=O)Cn2cnc([N+](=O)[O-])n2)sc2c1CCC(C)C2 (stereo not drawn) | Trypanosoma cruzi | reporter mRNA translation, inhibitor, item: Renilla luciferase mRNA | cell-free extract | concentration not given, test 2 | relative to: positive over negative control | translation activity | 139% and 87.1%
CCCC[C@H](NC(C)=O)C(=O)N[C@@H](CO)C(=O)N[C@H](C(=O)N1CCC[C@H]1C(=O)N[C@]1(C)CCCCCCC=CCCC[C@@](C)(C(=O)N[C@@H](Cc2ccccc2)C(=O)N[C@@H](CCCCN)C(=O)N[C@@H](CCCNC(=N)N)C(=O)N[C@@H](CC(C)C)C(=O)N[C@@H](CCC(N)=O)C(N)=O)NC(=O)[C@H](CCCNC(=N)N)NC(=O)[C@H](CCCC)NC(=O)[C@H](CC(C)C)NC(=O)[C@H](CCCNC(=N)N)NC(=O)[C@H](CCCNC(=N)N)NC(=O)[C@H](CCCNC(=N)N)NC1=O)[C@@H](C)O | Proteinase K (PROK, Engyodontium album, UniProt P06873) | proteolytic stability, LC-MS |  | 25 µM, 615.1 min, pH 7.4 |  | remaining intact peptide | 37.9% and 35%
Cn1c2cc([S+](C)[O-])sc2c2cnn(Cc3cccc(N)c3)c(=O)c21 (stereo not drawn) |  |  | male BALB/c mouse, plasma | intraperitoneal, 10 mg/kg, single dose |  | AUC(0-t) | 27000 ng·h/mL
